# Assay results of several laboratories.
# Protocols differ between the studies behind these lines.
SMILES,test,system,conditions,scale,measurement,result
CNC(=O)c1ccc(-c2cnc3ncc(Cc4ccc5ncccc5c4)n3n2)cc1F,,healthy human subjects,"oral, 400 mg, Fatigue, all grades, all causality, added: rifampicin 600 mg/day",,subjects with adverse event,7.7%
C[C@H]1O[C@@H](O[C@H]2[C@@H](O)C[C@H](O[C@H]3[C@@H](O)C[C@H](O[C@H]4CC[C@@]5(C)[C@H](CC[C@@H]6[C@@H]5C[C@@H](O)[C@]5(C)[C@@H](C7=CC(=O)OC7)CC[C@]65O)C4)O[C@@H]3C)O[C@@H]2C)C[C@H](O)[C@@H]1O,item: Dizziness,healthy human,"oral, dose not given",,subjects with adverse event,0%
COC(=O)N[C@H](C(=O)N1CCC[C@H]1c1ncc(-c2cc(F)c3c(c2)O[C@@H](c2cnc(C4CC4)s2)n2c-3cc3cc(-c4cnc([C@@H]5CCCN5C(=O)[C@@H](NC(=O)OC)C(C)C)[nH]4)ccc32)[nH]1)C(C)C,,healthy adult human,"oral, 180 mg, 6 days, compound alone",,subjects with back pain,6.3%
CC(C)(C(=O)N1CCOc2c(C#N)cncc2C1)C(F)F,item: general and administration site conditions,"healthy humans, both sexes","oral, 40 mg single dose",,subjects with TEAE,16.7%
C[C@]12C=CC(=O)C=C1CC[C@@H]1[C@@H]2C(=O)C[C@@]2(C)[C@H]1CC[C@]2(O)C(=O)CO,,healthy human subjects,"oral, dose not given",,subjects with TEAEs,9.5%
CC(C)n1c(Nc2cccnc2)nc2cnc(Nc3ccc(N4CCN(C)CC4)cc3)nc21,item: investigations (SOC),"healthy human, male","oral, dose not given, CTCAE grade 1-3",,subjects with TEAE,47.6%
CN(Cc1cnc2nc(N)nc(N)c2n1)c1ccc(C(=O)N[C@@H](CCC(=O)O)C(=O)O)cc1,item: gastrointestinal disorders,healthy human,"oral, dose not given",,subjects with adverse event,0%
Cc1cc(-c2nccc3c2ccn3CC(=O)Nc2ccc(-c3cnccn3)cn2)ccn1,,human,"15 mg once daily, multiple ascending dose",,subjects with Headache adverse event,22.2%
CC(C)c1nc(N(C)S(C)(=O)=O)nc(-c2ccc(F)cc2)c1/C=C/[C@@H](O)C[C@@H](O)CC(=O)O,,healthy human subjects,"oral, dose not given, added: fruquintinib",,subjects with adverse events,25%
CO[C@H]1/C=C/O[C@@]2(C)Oc3c(C)c(O)c4c(O)c(c(/C=N/N5CCN(C)CC5)c(O)c4c3C2=O)NC(=O)/C(C)=C\C=C\[C@H](C)[C@H](O)[C@@H](C)[C@@H](O)[C@@H](C)[C@H](OC(C)=O)[C@@H]1C,,healthy humans,"oral, 600 mg, added: gepotidacin 1500 mg",,subjects with abdominal pain,0%
O=C(COc1ccc(Cl)cc1)NC12CC(c3nnc([C@H]4C[C@@H](OC(F)(F)F)C4)o3)(C1)C2,,humans,"200 mg once daily, highest severity",,subjects with moderate TEAE,42.9%
CC(=O)N(C)[C@H]1CCN(C(=O)c2cnc3c(c2)C[C@](C)(c2ccc(F)cc2)N3)C1,,healthy male human,"oral, dose not given, all doses pooled",,subjects with drug-related AEs,25%
CO[C@H]1/C=C/O[C@@]2(C)Oc3c(C)c(O)c4c(O)c(c(/C=N/N5CCN(C)CC5)c(O)c4c3C2=O)NC(=O)/C(C)=C\C=C\[C@H](C)[C@H](O)[C@@H](C)[C@@H](O)[C@@H](C)[C@H](OC(C)=O)[C@@H]1C,item: rash papular,humans,"oral, dose not given",,subjects with TEAEs,0%
C[C@@H](N)c1cc(Cl)ccc1Cn1c(=S)[nH]c(=O)c2[nH]ccc21,,human,"oral, 2.5 mg single dose",,subjects with severe adverse events,0%
CC(C)c1c(C(=O)Nc2ccccc2)c(-c2ccccc2)c(-c2ccc(F)cc2)n1CC[C@@H](O)C[C@@H](O)CC(=O)O,item: drug-related adverse events,healthy human,"oral, dose not given",relative to: subjects,subjects with adverse event,3%
C[C@H]1CN(C(=O)CC#N)[C@]12CCN(c1ncnc3[nH]ccc13)C2,,healthy human,"oral, 6 mg single",,subjects with Arthralgia,0%
CN(C)C(=N)N=C(N)N,item: Headache,healthy human,"oral, dose not given",,subjects with adverse event,16.7%
CN1CCN(c2cccc3c2CCN(C(=O)/C=C/c2c(-n4cnnn4)ccc(Cl)c2F)[C@@H]3C(=O)Nc2ccc(C(=O)O)cc2)C(=O)C1,,healthy human subjects,"intravenous infusion, 1.5 mg/h, 2 h",,subjects with serious adverse event,0%
CN1C(=O)[C@@H](NC(=O)c2nnc(Cc3ccccc3)[nH]2)COc2cccnc21,,"human, fasted","oral, 30 mg single dose",,subjects with headache,16.7%
C=CC(=O)NC1CCN(c2ncc3ncnc(Nc4ccc(Oc5ccc6c(c5)ncn6C)c(C)c4)c3n2)CC1,,healthy male human,"oral, 60 mg, 2 weeks, maximum CTCAE grade 3",,subjects with adverse events,0%
Cc1nc(Nc2ncc(C(=O)Nc3c(C)cccc3Cl)s2)cc(N2CCN(CCO)CC2)n1,,human,"oral, 100 mg",,subjects with related TEAE,61.1%
CC(=O)CC(c1ccccc1)c1c(O)c2ccccc2oc1=O (stereo not drawn),,human,"concentration not given, trial 1",,subjects with GI disorders,0%
C=C(C)[C@@H]1CC[C@]2(NCCN3CCS(=O)(=O)CC3)CC[C@]3(C)[C@H](CC[C@@H]4[C@@]5(C)CC=C(C6=CC[C@@](CF)(C(=O)O)CC6)C(C)(C)[C@@H]5CC[C@]43C)[C@@H]12,,healthy human volunteers,"oral, 500 mg, 7 days",,subjects with any adverse event,17%
CC[C@H](C)[C@H](NC(=O)[C@H](Cc1ccccc1)NC(=O)[C@H](CCC(=O)O)NC(=O)[C@H](CCCCNC(=O)COCCOCCNC(=O)COCCOCCNC(=O)CC[C@H](NC(=O)CCCCCCCCCCCCCCCCC(=O)O)C(=O)O)NC(=O)[C@H](C)NC(=O)[C@H](C)NC(=O)[C@H](CCC(N)=O)NC(=O)CNC(=O)[C@H](CCC(=O)O)NC(=O)[C@H](CC(C)C)NC(=O)[C@H](Cc1ccc(O)cc1)NC(=O)[C@H](CO)NC(=O)[C@H](CO)NC(=O)[C@@H](NC(=O)[C@H](CC(=O)O)NC(=O)[C@H](CO)NC(=O)[C@@H](NC(=O)[C@H](Cc1ccccc1)NC(=O)[C@@H](NC(=O)CNC(=O)[C@H](CCC(=O)O)NC(=O)C(C)(C)NC(=O)[C@@H](N)Cc1cnc[nH]1)[C@@H](C)O)[C@@H](C)O)C(C)C)C(=O)N[C@@H](C)C(=O)N[C@@H](Cc1c[nH]c2ccccc12)C(=O)N[C@@H](CC(C)C)C(=O)N[C@H](C(=O)N[C@@H](CCCNC(=N)N)C(=O)NCC(=O)N[C@@H](CCCNC(=N)N)C(=O)NCC(=O)O)C(C)C,,healthy human,"subcutaneous, 0.25 to 1.5 mg weekly, 16 weeks",,subjects with serious adverse events,1.2%

# For quick reference, copied from above:
SMILES,test,system,conditions,scale,measurement,result
CC(C)n1c(Nc2cccnc2)nc2cnc(Nc3ccc(N4CCN(C)CC4)cc3)nc21,item: investigations (SOC),"healthy human, male","oral, dose not given, CTCAE grade 1-3",,subjects with TEAE,47.6%
CN(Cc1cnc2nc(N)nc(N)c2n1)c1ccc(C(=O)N[C@@H](CCC(=O)O)C(=O)O)cc1,item: gastrointestinal disorders,healthy human,"oral, dose not given",,subjects with adverse event,0%
Cc1cc(-c2nccc3c2ccn3CC(=O)Nc2ccc(-c3cnccn3)cn2)ccn1,,human,"15 mg once daily, multiple ascending dose",,subjects with Headache adverse event,22.2%
CC(C)c1nc(N(C)S(C)(=O)=O)nc(-c2ccc(F)cc2)c1/C=C/[C@@H](O)C[C@@H](O)CC(=O)O,,healthy human subjects,"oral, dose not given, added: fruquintinib",,subjects with adverse events,25%
